# Published values collected from several papers.
# Numbers after ± are the reported error.
# PLK1 polo-box domain: Serine/threonine-protein kinase PLK1, polo-box domain (PLK1, Homo sapiens, UniProt P53350)
# Chain of UniProt P53350 (whole entry, looked up): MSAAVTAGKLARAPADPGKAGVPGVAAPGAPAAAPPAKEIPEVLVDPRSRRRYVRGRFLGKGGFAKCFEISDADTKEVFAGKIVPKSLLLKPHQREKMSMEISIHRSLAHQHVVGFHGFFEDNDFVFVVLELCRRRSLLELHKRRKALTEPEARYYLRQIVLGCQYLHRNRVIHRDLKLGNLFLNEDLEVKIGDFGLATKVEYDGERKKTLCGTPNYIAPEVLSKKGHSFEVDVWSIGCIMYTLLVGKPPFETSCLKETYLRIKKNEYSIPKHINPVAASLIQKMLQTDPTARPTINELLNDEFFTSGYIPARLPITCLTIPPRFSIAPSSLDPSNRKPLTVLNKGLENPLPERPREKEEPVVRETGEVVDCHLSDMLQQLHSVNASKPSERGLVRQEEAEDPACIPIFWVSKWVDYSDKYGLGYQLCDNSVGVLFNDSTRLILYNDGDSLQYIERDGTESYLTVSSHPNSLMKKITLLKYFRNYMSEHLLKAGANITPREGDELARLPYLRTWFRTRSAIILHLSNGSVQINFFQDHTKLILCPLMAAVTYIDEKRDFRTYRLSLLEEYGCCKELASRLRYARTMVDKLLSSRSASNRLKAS
# PLK1: Serine/threonine-protein kinase PLK1 (PLK1, Homo sapiens, UniProt P53350)
# PLK1 polo-box: Serine/threonine-protein kinase PLK1, polo-box (PLK1, Homo sapiens, UniProt P53350)
Structure (SMILES),target,assay,measurement,result
CC(=O)N1CCC[C@H]1C(=O)N[C@@H](CC(C)C)C(=O)N[C@H]1C[C@H](CCCCCCCCc2ccccc2)C(=O)NCCCC[C@@H](C(N)=O)NC(=O)[C@H]([C@@H](C)OP(=O)(O)O)NC(=O)[C@H](CO)NC1=O,PLK1 polo-box domain,"enzyme activity, inhibitor",IC50,5 ± 0.4 nM
CC[C@@H]1C(=O)N(C)c2cnc(Oc3ccc(C(=O)NCCCC[C@H](NC(=O)COCCOCCNC(=O)COCCOCCNC(=O)COCCOCCNC(=O)COCCOCCNC(=O)[C@@H](NC(=O)[C@H](CO)NC(=O)[C@H](Cc4cncn4CCCCCCCCc4ccccc4)NC(=O)[C@H](CC(C)C)NC(=O)[C@@H]4CCCN4C(C)=O)[C@@H](C)OP(=O)(O)O)C(N)=O)cc3OC)nc2N1C1CCCC1,PLK1,"enzyme activity, inhibitor",IC50,33 ± 3.5 nM
CSCC[C@H](NC(=O)[C@@H]1CCCN1C(=O)CNC(=O)[C@H](C)NC(=O)[C@@H](N)CCSC)C(=O)N[C@@H](CCC(N)=O)C(=O)N[C@@H](CO)C(=O)N[C@H](C(=O)N1CCC[C@H]1C(=O)N[C@@H](CC(C)C)C(=O)N[C@@H](CC(N)=O)C(=O)NCC(=O)N[C@@H](C)C(=O)N[C@@H](CCCCN)C(=O)N[C@@H](CCCCN)C(=O)O)[C@@H](C)OP(=O)(O)O,PLK1 polo-box domain,inhibitor,IC50,850 nM
CC(C)C[C@@H]1NC(=O)CCCCCCCCCCCCCC[n+]2cc(n(CCCCCCCCc3ccccc3)c2)C[C@@H](C(=O)N[C@@H](CO)C(=O)N[C@H](C(N)=O)[C@@H](C)OP(=O)([O-])O)NC1=O,PLK1 polo-box domain,,IC50,13000 nM
CC(C)C[C@H](NC(=O)CCCCCCCCc1ccccc1)C(=O)N[C@@H](Cc1c[nH]cn1)C(=O)N[C@@H](CO)C(=O)N[C@H](C(N)=O)[C@@H](C)OP(=O)(O)O,PLK1 polo-box,"ligand displacement, FP",IC50,19 nM
CC(=O)N[C@@H](Cc1c[nH]cn1)C(=O)N[C@@H](C)C(=O)N1CCC[C@H]1C(=O)N1CCC[C@H]1C(=O)N[C@@H](CC(C)C)C(=O)N[C@@H](Cc1c[nH]cn1)C(=O)N[C@@H](CO)C(=O)N[C@H](C(=O)N[C@@H](C)C(N)=O)[C@@H](C)OP(=O)(O)O,PLK1 polo-box,"binding, MST",Kd,33.3 nM
CC[C@@H]1C(=O)N(C)c2cnc(Oc3ccc(C(=O)NCCCC[C@H](NC(=O)COCCOCCNC(=O)COCCOCCNC(=O)COCCOCCNC(=O)COCCOCCNC(=O)[C@@H](NC(=O)[C@H](CO)NC(=O)[C@H](Cc4cncn4CCCCCCCCc4ccccc4)NC(=O)[C@H](CC(C)C)NC(=O)[C@@H]4CCCN4C(C)=O)[C@@H](C)OP(=O)(O)O)C(N)=O)cc3OC)nc2N1CC(C)C,PLK1,"enzyme activity, inhibitor",IC50,60 ± 2.9 nM
CC(=O)N[C@@H](CC(C)C)C(=O)N[C@@H](C)C(=O)N1CCC[C@H]1C(=O)N1CCC[C@H]1C(=O)N[C@@H](CC(C)C)C(=O)N[C@@H](Cc1c[nH]cn1)C(=O)N[C@@H](CO)C(=O)N[C@H](C(=O)N[C@@H](C)C(N)=O)[C@@H](C)OP(=O)(O)O,PLK1 polo-box,"binding, MST",Kd,40.4 nM
CC(=O)N(CCCCCCc1ccccc1)CC(=O)N[C@@H](CC(C)C)C(=O)N[C@@H](Cc1c[nH]cn1)C(=O)N[C@@H](CO)C(=O)N[C@H](C(N)=O)[C@@H](C)OP(=O)(O)O,PLK1 polo-box,"ligand displacement, FP",IC50,15 nM
CC(C)C[C@@H]1NC(=O)CCCCCCCCCCCC[n+]2cc(n(CCCCCCCCc3ccccc3)c2)C[C@@H](C(=O)N[C@@H](CO)C(=O)N[C@H](C(N)=O)[C@@H](C)OP(=O)([O-])O)NC1=O,PLK1 polo-box domain,,IC50,240 nM
CC(=O)N[C@@H](Cc1ccccc1)C(=O)N[C@@H](C)C(=O)N1CCC[C@H]1C(=O)N1CCC[C@H]1C(=O)N[C@@H](CCC(=O)O)C(=O)N[C@@H](Cc1c[nH]cn1)C(=O)N[C@@H](CO)C(=O)N[C@H](C(=O)N[C@@H](C)C(N)=O)[C@@H](C)OP(=O)(O)O,PLK1 polo-box,"binding, MST",Kd,14.4 nM
